Experimental data pooled from the literature.
Each numbered part is a random draw from the data of one study; scales do not carry over between parts.

Block 1
Target: Histone acetyltransferase KAT6A, winged helix 1, GST fusion (KAT6A, Homo sapiens, UniProt Q92794, residues 1-85)
Method: protein binding microarray
Form: double-stranded DNA, one strand shown
Matrix: in vitro
Concentration: not given
Notes: 8-mer, flanks averaged, mean of 2 arrays, mostly near background
Reference: not given
Reading: higher = stronger binding
Quantity: E-score
Residues (chain): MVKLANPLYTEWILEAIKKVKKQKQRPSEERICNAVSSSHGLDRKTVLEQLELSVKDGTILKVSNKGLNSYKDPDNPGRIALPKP
AGTAATCG: -0.00532
GCATTCGC: 0.258
CACCGAAC: 0.0136
ACGACCAC: -0.188
CTAATTGC: 0.0188
AGTGGAAG: -0.0152
CCAGATCC: -0.198
GGGGGCCA: 0.147
CTGGCCAC: -0.169
AAGAGATC: -0.171
CAGTCTAG: -0.119

Block 2
Target: Myc proto-oncogene protein, bHLH-zipper, MAX partner unstated (MYC, Homo sapiens, UniProt P01106, residues 368-449)
Sequence of UniProt P01106 (368-449, looked up): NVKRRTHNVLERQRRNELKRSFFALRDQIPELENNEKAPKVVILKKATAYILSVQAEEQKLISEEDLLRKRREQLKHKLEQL
Method: protein-binding microarray
Form: double-stranded DNA, one strand shown
Matrix: in vitro
Concentration: not given
Notes: k-mer, scored over probes, only values ≥0.25
Reading: higher = stronger binding
Quantity: E-score
CGTGCTGA: 0.36
CGTGATAG: 0.253
GACCACGC: 0.466
CCATGCAA: 0.337
ATCCACGA: 0.292
GTGTGCTA: 0.286
AATCCGCA: 0.251
GCGTCCAC: 0.254

Block 3
Target: Sal-like protein 4, full length isoform A (SALL4, Homo sapiens, UniProt Q9UJQ4, residues 1-1053)
Sequence of UniProt Q9UJQ4 (whole entry, looked up): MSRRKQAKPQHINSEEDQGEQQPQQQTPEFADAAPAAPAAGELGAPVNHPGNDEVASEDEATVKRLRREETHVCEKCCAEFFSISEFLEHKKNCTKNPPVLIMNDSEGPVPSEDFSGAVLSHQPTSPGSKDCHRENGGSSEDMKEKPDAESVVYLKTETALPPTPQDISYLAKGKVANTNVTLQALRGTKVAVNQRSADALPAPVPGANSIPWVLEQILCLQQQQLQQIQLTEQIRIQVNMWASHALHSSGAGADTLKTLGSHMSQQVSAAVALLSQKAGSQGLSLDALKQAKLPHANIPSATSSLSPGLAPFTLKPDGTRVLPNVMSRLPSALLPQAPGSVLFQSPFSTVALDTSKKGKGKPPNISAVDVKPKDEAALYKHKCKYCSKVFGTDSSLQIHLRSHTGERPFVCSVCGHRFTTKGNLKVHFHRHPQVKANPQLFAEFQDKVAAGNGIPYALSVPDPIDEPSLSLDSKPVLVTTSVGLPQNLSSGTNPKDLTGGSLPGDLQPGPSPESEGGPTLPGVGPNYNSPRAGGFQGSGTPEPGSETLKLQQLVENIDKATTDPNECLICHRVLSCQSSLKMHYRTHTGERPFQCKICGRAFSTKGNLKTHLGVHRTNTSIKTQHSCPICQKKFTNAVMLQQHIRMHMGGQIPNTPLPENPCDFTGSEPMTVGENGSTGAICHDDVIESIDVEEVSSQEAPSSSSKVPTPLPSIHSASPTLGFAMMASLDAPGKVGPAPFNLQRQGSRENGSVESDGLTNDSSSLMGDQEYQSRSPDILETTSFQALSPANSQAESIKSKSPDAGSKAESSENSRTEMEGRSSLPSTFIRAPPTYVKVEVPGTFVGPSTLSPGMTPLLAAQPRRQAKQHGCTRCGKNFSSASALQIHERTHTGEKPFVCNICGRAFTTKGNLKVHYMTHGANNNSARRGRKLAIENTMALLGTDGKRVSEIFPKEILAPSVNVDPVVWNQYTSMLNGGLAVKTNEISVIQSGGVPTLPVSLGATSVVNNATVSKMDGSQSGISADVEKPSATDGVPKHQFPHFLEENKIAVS
Method: universal PBM
Form: double-stranded DNA, one strand shown
Matrix: in vitro
Concentration: 600 nM
Notes: 8-mer, flanks averaged, mean of replicates
Reading: higher = stronger binding
Quantity: E-score
AAGTCCAC: -0.172
AACCGATA: 0.162
CATCGAGA: 0.0116
GGAAGACA: 0.0506
ATTCGAAT: 0.219
TATGTACA: 0.331
CTATAAAC: 0.286

Single results of other studies
PhoQ, residues 284 288 289 292 302 303 ASTSDA
fold induction (PhoP, residues 12 14 15 18 19 MHTVL (Escherichia coli, UniProt P23836); Sort-seq, refers to: YFP reporter; E. coli; PhoQ-PhoP variant library, added: 10 µM Mg2+; reference: high Mg2+ state, higher = stronger signaling): 7.96

Some of these lines once more (block 1):
CACCGAAC: 0.0136
ACGACCAC: -0.188
